Assay results pooled from the literature.
Parts stem from different laboratories: compare values within a part only. Substitutions count along the parent as printed.

Sample 1 — technique: universal PBM; molecule type: double-stranded DNA, one strand shown; medium: in vitro; tested at: 600 nM; reading: higher = stronger binding
Target: Sal-like protein 4, full length isoform A (SALL4, Homo sapiens, UniProt Q9UJQ4, residues 1-1053)
Sequence of UniProt Q9UJQ4 (whole entry, looked up): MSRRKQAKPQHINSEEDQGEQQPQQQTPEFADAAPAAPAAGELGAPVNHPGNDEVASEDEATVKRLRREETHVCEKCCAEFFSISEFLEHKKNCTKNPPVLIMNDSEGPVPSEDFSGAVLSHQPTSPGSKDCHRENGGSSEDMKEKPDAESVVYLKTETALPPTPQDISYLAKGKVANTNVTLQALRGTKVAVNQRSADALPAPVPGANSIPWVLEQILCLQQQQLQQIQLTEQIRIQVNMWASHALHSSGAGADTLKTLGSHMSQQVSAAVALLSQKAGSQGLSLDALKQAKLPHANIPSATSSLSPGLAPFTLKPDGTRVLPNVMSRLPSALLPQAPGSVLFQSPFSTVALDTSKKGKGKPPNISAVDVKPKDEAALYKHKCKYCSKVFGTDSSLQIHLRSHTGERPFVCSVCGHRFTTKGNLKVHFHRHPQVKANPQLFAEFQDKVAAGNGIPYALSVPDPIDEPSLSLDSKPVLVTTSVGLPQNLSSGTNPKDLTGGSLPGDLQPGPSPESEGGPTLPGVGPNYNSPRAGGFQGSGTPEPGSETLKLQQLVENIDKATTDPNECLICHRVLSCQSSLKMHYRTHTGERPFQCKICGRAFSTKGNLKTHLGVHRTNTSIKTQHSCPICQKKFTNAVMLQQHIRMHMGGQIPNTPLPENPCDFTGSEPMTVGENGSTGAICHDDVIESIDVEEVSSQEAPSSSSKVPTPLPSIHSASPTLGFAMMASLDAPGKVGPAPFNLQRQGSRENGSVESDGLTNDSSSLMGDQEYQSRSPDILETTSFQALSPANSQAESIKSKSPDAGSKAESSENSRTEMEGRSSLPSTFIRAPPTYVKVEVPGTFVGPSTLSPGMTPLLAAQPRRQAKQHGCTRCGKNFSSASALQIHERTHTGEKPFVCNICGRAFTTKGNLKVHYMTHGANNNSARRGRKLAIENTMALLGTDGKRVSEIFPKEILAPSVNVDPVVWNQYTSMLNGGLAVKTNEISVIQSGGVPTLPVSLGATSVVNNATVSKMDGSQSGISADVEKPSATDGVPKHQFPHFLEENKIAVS
Notes: 8-mer, flanks averaged, mean of replicates
For `CATTCCCA`, the E-score was 0.15.
With `CCTAACCG` the E-score was -0.319.
`CGGGTTCC` gave an E-score of -0.267.
`CCAGGGCG` has an E-score of -0.457.
The E-score of `CCCCGGTC` is reported as -0.37.
`AACGTCCT` gave an E-score of 0.0937.
With `CCTGTGTA` the E-score was 0.148.
The E-score of `GCATGAAA` is reported as 0.156.
`GTGGGGCA` has an E-score of -0.255.
For `TCAACCCA`, the E-score was -0.117.
For `AATAATTA`, the E-score was 0.449.
For `GAGGCGCC`, the E-score was -0.369.
`ATTGAGAA` gave an E-score of 0.267.
`GATGCGCC` gave an E-score of -0.131.
For `GATGGTAC`, the E-score was -0.0885.
`ACCGCGGC` has an E-score of -0.314.
`AAACGTTC` gave an E-score of 0.103.
For `ATGGAATG`, the E-score was -0.0457.
The E-score of `ACACACCG` is reported as -0.164.

Sample 2 — technique: RNA Bind-n-Seq; molecule type: RNA; medium: in vitro; tested at: 200 nM; notes: whole 134-nt RNA, ends assumed; added: 150 mM LiCl; reference: input library; reading: higher = stronger binding; library: 7-deaza-guanosine replaces G
Target: Ras GTPase-activating protein-binding protein 1, full length (G3BP1, Homo sapiens, UniProt Q13283)
Sequence of UniProt Q13283 (whole entry, looked up): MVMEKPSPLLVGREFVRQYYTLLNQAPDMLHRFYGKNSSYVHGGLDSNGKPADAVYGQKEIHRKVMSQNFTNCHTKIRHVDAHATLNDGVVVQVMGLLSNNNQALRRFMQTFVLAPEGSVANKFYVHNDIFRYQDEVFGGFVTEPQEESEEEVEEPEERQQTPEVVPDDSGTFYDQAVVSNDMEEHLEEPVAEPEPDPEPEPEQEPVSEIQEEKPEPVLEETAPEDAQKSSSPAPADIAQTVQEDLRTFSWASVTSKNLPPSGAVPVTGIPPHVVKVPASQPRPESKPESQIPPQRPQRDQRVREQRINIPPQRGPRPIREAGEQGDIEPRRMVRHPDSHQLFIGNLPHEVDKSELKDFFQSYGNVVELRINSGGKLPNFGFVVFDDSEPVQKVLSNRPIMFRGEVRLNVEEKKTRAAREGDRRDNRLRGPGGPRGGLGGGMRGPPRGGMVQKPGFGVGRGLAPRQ
`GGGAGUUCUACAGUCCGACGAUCAAGUCCUGUGCUACACAUCGUAUGUACCGAAUCGGGAAAAAGGGUUUGGGAAAGGGAAAGUAUUAUGUUACGCCGUUCGGAUCUGCACUUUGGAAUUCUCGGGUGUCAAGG` gave a log2 enrichment of -1.2.
With `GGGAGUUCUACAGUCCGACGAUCUAUCCCCUAUGAGGCACCACGUAAGACCUCCUGCCCUUAGCUCUCUUGCUCACCACCCAAGAACCUCAGGACAGAAGCGAGAGCCCAUUGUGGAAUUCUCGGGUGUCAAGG` the log2 enrichment was 1.31.
`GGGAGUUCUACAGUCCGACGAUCGUCCUGUGCUACACAUCGUAUGUACCGAAUCGGGUUUUUUUGGGAAAAAGGGUUUGGGAAAGUAUUAUGUUACGCCGUUCGGAUCUGCACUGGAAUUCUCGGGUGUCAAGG` has a log2 enrichment of -2.68.
With `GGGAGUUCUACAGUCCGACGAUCUCCUCAAGUCCUGUGCUACACAUCGUAUGUACCGAAUCGGGAGGGAGGGAGGAAAGUAUUAUGUUACGCCGUUCGGAUCUGCACUUCCAGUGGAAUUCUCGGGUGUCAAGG` the log2 enrichment was 0.11.
`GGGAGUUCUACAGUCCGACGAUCCUCAAGUCCUGUGCUACACAUCGUAUGUACCGAAUCGGCCGGGCCGGGGCCGGGAAAGUAUUAUGUUACGCCGUUCGGAUCUGCACUUCCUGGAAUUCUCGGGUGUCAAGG` gave a log2 enrichment of 0.446.
With `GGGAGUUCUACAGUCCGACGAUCCAAGUCCUGUGCUACACAUCGUAUGUACCGAAUCGGAAAGGAAAAAGGAAAAAGGAAAGUAUUAUGUUACGCCGUUCGGAUCUGCACUUCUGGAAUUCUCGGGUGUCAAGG` the log2 enrichment was -0.59.
For `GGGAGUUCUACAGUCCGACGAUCUGGCCCCGGUGGCAUGCGGGGAGGAAGAGGUGGCCUCAUGGAUCGUGGUGGUCCCGGUGGAAUGUUCAGAGGUGGCCGUGGUGGAGACAGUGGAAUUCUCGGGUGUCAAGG`, the log2 enrichment was 0.205.
`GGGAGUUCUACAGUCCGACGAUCUCCUGUGCUACACAUCGUAUGUACCGAAUCGGGGCCCCCCGGCCCCCCGGCCCCCCGGGAAAGUAUUAUGUUACGCCGUUCGGAUCUGCAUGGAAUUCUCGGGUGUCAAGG` has a log2 enrichment of 0.338.

Sample 3 — technique: protein binding microarray; molecule type: double-stranded DNA, one strand shown; medium: in vitro; tested at: not given; reference: not given; reading: higher = stronger binding
Target: Histone acetyltransferase KAT6A, both winged helices, GST fusion (KAT6A, Homo sapiens, UniProt Q92794, residues 1-181)
Notes: 8-mer, flanks averaged, mean of 2 arrays, mostly near background
Target sequence (chain): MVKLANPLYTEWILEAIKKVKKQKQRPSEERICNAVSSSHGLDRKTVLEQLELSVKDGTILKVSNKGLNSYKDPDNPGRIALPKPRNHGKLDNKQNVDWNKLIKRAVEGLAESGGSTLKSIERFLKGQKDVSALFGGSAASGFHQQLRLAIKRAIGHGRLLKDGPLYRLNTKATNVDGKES
The E-score of `CGACCACC` is reported as 0.0221.
`GAACCTAA` has an E-score of 0.0358.
For `GTTCTCCA`, the E-score was -0.161.
With `ATCCATTG` the E-score was -0.0784.
`CTCGTAGC` gave an E-score of -0.0445.
The E-score of `GTCGGCAA` is reported as 0.249.
`TATGGGCA` gave an E-score of -0.0587.
`ACCGACCT` has an E-score of -0.00029.
`GTCCCCGA` gave an E-score of 0.0488.
With `AAAGTTTG` the E-score was -0.0812.
The E-score of `CTCTTTAA` is reported as -0.169.
`GATCGCGA` gave an E-score of 0.244.
`AGAAGTCA` has an E-score of -0.0244.
With `AGCGGAAG` the E-score was 0.179.
`TCTTGCCA` has an E-score of -0.2.
`CTTCCCGC` has an E-score of 0.225.
`AGTGTTAA` has an E-score of 0.0539.
`ATAGAGAA` has an E-score of -0.186.
`TAAGGCTA` gave an E-score of -0.211.
With `AAGAAGGT` the E-score was -0.105.
`ATCGTCTA` gave an E-score of -0.0523.
The E-score of `AATCCGAG` is reported as 0.0775.
The E-score of `GCCGTCCA` is reported as 0.145.
`CCGACTAG` has an E-score of 0.0395.
The E-score of `AGTGAATG` is reported as -0.0261.

Sample 4 — target: CCNF, cyclin fold, Cln2 fusion (human); technique: yeast growth competition, sequencing; medium: yeast; notes: strong parent motif; reference: not given; reading: higher = stronger binding
Starting sequence: BRCA2 docking peptide (human); PSIKRNLLNEFDR
For `P1D`, “normalised enrichment score” read 2.03.
`D12C`: “normalised enrichment score” 2.79.
Under “normalised enrichment score”, `K4T` is recorded as 0.861.
For `F11V`, “normalised enrichment score” read 1.79.
`R5Y` — result for “normalised enrichment score”: -0.0405.
`K4Y` — result for “normalised enrichment score”: 1.76.
`R5G`: “normalised enrichment score” -0.234.
`L8N`: “normalised enrichment score” 1.93.
Under “normalised enrichment score”, `N9T` is recorded as 3.27.
`P1W`: “normalised enrichment score” 4.15.
`R5A L7A` — result for “normalised enrichment score”: -0.159.
`D12Y`: “normalised enrichment score” 3.2.
`N6T`: “normalised enrichment score” 1.07.
Under “normalised enrichment score”, `R5P` is recorded as 1.02.
For `I3P`, “normalised enrichment score” read 1.17.
Under “normalised enrichment score”, `E10Q` is recorded as 1.29.
`S2N`: “normalised enrichment score” 2.58.
For `D12P`, “normalised enrichment score” read 2.65.
`L7V`: “normalised enrichment score” 0.12.
For `E10P`, “normalised enrichment score” read 2.32.
`E10W`: “normalised enrichment score” 2.7.
For `F11K`, “normalised enrichment score” read 0.454.
`L7N`: “normalised enrichment score” -0.436.
`D12M`: “normalised enrichment score” 3.68.
For `P1Y`, “normalised enrichment score” read 4.41.

Repeated from above (sample 2):
`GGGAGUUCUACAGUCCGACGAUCAAGUCCUGUGCUACACAUCGUAUGUACCGAAUCGGGAAAAAGGGUUUGGGAAAGGGAAAGUAUUAUGUUACGCCGUUCGGAUCUGCACUUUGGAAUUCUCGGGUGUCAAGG` gave a log2 enrichment of -1.2.
With `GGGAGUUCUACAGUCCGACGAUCUCCUCAAGUCCUGUGCUACACAUCGUAUGUACCGAAUCGGGAGGGAGGGAGGAAAGUAUUAUGUUACGCCGUUCGGAUCUGCACUUCCAGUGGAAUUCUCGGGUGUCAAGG` the log2 enrichment was 0.11.
`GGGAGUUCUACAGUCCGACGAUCGUCCUGUGCUACACAUCGUAUGUACCGAAUCGGGUUUUUUUGGGAAAAAGGGUUUGGGAAAGUAUUAUGUUACGCCGUUCGGAUCUGCACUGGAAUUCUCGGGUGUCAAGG` has a log2 enrichment of -2.68.
With `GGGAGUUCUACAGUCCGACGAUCUAUCCCCUAUGAGGCACCACGUAAGACCUCCUGCCCUUAGCUCUCUUGCUCACCACCCAAGAACCUCAGGACAGAAGCGAGAGCCCAUUGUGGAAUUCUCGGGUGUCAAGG` the log2 enrichment was 1.31.
For `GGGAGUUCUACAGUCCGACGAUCUGGCCCCGGUGGCAUGCGGGGAGGAAGAGGUGGCCUCAUGGAUCGUGGUGGUCCCGGUGGAAUGUUCAGAGGUGGCCGUGGUGGAGACAGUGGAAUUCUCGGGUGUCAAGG`, the log2 enrichment was 0.205.
`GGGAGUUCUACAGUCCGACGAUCCUCAAGUCCUGUGCUACACAUCGUAUGUACCGAAUCGGCCGGGCCGGGGCCGGGAAAGUAUUAUGUUACGCCGUUCGGAUCUGCACUUCCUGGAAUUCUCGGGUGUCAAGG` gave a log2 enrichment of 0.446.
